Measurements gathered from unrelated publications.
Compare with care: the assays were run in different laboratories. “And” joins repeats or separate records; there may be more than shown. Numbers after ± are the reported error.

SMILES	cell line	test	conditions	how to read	endpoint	result
Cc1ccc(-n2nc(C)c3c(-c4ccc(O)c(O)c4)c(C#N)c(N)nc32)cc1C	MDCK				CC50	39.3 µM and 39 µM
CCC(CC)O[C@@H]1C=C(C(=O)O)C[C@H](N)[C@H]1NC(C)=O	MDCK	cell morphology			minimum cytotoxic concentration	> 100 µM
CC(N)C12CC3CC(CC(C3)C1)C2 (centres unmarked)	MDCK	microscopy, altered cell morphology			minimum cytotoxic concentration	≥ 500 µM
COc1cc(-c2c(C#N)c(N)nc3c2c(C)nn3-c2ccc(F)cc2)ccc1O	MDCK				CC50	45.8 µM and 48.3 µM
CC(=O)N[C@H]1[C@H]([C@H](O)[C@H](O)CO)OC(C(=O)O)=C[C@@H]1N=C(N)N	MDCK	microscopy, altered cell morphology			minimum cytotoxic concentration	> 100 µM
CO[C@H]1/C=C/O[C@@]2(C)Oc3c(C)c(O)c4c(O)c(c(/C=N/N5CCN(C6CCCC6)CC5)c(O)c4c3C2=O)NC(=O)/C(C)=C\C=C\[C@H](C)[C@H](O)[C@@H](C)[C@@H](O)[C@@H](C)[C@H](OC(C)=O)[C@@H]1C	mouse cells		50 µg/mL, 24 h		viability	< 60%
CC(N)C12CC3CC(CC(C3)C1)C2 (centres unmarked)	MDCK	cell morphology			minimum cytotoxic concentration	> 500 µM
CCCCOc1ccc(Nc2cn(C3C=CC(O)C3)c(=O)n(CCCn3c(=O)c(C)cn(C4CC(N=[N+]=[N-])C(CO)O4)c3=O)c2=O)cc1 (centres unmarked)	MT4	cell growth or viability			CC50	47 µM
Cc1ncc2n1-c1ccc(Cl)cc1C(c1ccccc1F)=NC2	Caco-2 clone P27.7		3 µM, pH 7.4, with or without 25% cranberry juice	apical to basolateral	Papp	> 10 ×10⁻⁶ cm/s
CN1CC[C@]23c4c5ccc(O)c4O[C@H]2[C@@H](O[C@@H]2O[C@H](C(=O)O)[C@@H](O)[C@H](O)[C@H]2O)C=C[C@H]3[C@H]1C5	MDCK II		1.0 µg/mL, 100 min, DMEM buffer		Papp	2.01 ± 0.06 ×10⁻⁶ cm/s
CCCCCCCCCCc1cn(Cc2cn([C@H]3C[C@H](O)[C@@H](COC(=O)OC[C@H]4O[C@@H](n5cc(C)c(=O)[nH]c5=O)C[C@@H]4N=[N+]=[N-])O3)c(=O)[nH]c2=O)nn1	MT4	cell growth or viability			CC50	89.9 µM
